Experimental data gathered from unrelated publications.
Parts stem from different laboratories: compare values within a part only. Substitutions count along the parent as printed.

Sample 1
Target: FOSB, bZIP domain (human)
Method: DHFR protein complementation
Sample: yeast
Notes: single substitutions, most at no-binding floor
Reference: wild-type JUN-FOS pair
Direction: higher = stronger binding
Measurement: binding fitness
Parent: JUN, bZIP domain (human); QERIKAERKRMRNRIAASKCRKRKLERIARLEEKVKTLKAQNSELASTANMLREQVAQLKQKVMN
Change = L52E; result = -1.25 natural log
Change = L45T; result = -1.31 natural log
Change = T48P; result = -1.23 natural log
Change = M51P; result = -1.32 natural log
Change = L52R; result = -1.3 natural log
Change = E33P; result = -1.27 natural log
Change = Q41F; result = -1.37 natural log
Change = L31P; result = -1.23 natural log
Change = L45G; result = -1.22 natural log
Change = L52C; result = -1.37 natural log
Change = E44P; result = -1.4 natural log
Change = N42E; result = -1.35 natural log
Change = S47P; result = -1.43 natural log

Sample 2
Target: Interferon regulatory factor 7, full length, phosphomimetic (IRF7, Homo sapiens, UniProt Q92985, residues 1-503, S101K/S471D/S472D/S475D/S476D/S477D/S483D/S484D/S487D)
Chain of UniProt Q92985 (whole entry, unmodified, looked up): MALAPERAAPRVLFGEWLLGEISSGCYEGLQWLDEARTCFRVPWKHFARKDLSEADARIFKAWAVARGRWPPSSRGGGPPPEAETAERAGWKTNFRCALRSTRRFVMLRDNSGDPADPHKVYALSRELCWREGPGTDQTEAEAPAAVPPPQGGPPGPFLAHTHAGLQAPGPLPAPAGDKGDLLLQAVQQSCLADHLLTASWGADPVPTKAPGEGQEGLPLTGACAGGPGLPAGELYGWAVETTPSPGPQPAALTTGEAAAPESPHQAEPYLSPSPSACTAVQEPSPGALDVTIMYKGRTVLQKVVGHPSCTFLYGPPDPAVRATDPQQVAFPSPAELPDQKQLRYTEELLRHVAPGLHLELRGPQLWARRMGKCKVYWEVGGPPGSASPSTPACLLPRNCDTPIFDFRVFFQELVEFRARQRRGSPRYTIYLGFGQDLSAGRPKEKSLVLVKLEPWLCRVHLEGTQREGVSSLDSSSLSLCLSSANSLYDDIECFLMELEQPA
Method: protein-binding microarray
Form: double-stranded DNA, one strand shown
Sample: in vitro
Concentration: 250 nM
Notes: 60-bp whole probe
Added: salmon DNA 0.4 mg/ml
Reference: random background probes
Direction: higher = stronger binding
Measurement: log fluorescence
Constant ends, left off below: GCCTAGCAC … GTCTTGATTCGCTTGACGCTGCTG
Strand = GCCATTGTGGGTCTTGCAGAGTGCTAG; result = -0.69 z-score
Strand = TCATCTCCCAGACTGGAACTGTGCTAG; result = 0.624 z-score
Strand = CAAGTTACGGAATTTCCCTCTGTGCTA; result = 1.29 z-score
Strand = CAGCTTCTAATATTCATTTTGTGCTAG; result = 0.626 z-score
Strand = AACTTGGCAGGAGCGAATGGGTGCTAG; result = -0.688 z-score
Strand = TTCGATATCAGTATCGATTAGTGCTAG; result = 0.784 z-score
Strand = AGATCCATGCTCTGTCGCAGGGTGCTA; result = -0.263 z-score
Strand = GACGGTATCGGAATGGGGACGTGCTAG; result = 1.34 z-score
Strand = GACGGTATCGGGTATCGGGACGTGCTA; result = 0.607 z-score
Strand = TTAGGACTGCTTCTCCTGTAGTGCTAG; result = 0.547 z-score
Strand = CTTTCTATGTCTGTTTTTGCGTGCTAG; result = 1.29 z-score
Strand = TCAGAAATCTCAATGGGACTGTGCTAG; result = -0.216 z-score
Strand = TTCGGTATCGGGTTTCGGTTAGTGCTA; result = 6.85 z-score
Strand = TTAGATCACAGACTGGATTAGTGCTAG; result = -0.0918 z-score
Strand = GACGGTTTCCATTTCCTGACGTGCTAG; result = 8.82 z-score
Strand = TTAGAACTGCTTATCCTTTAGTGCTAG; result = 0.0469 z-score
Strand = TTAGGTTTAGGGACTGGGTTAGTGCTA; result = -0.113 z-score
Strand = GACGATTTCGGGTATCGAGACGTGCTA; result = 0.883 z-score
Strand = ATAGATATCAGTATCGATTAGTGCTAG; result = 0.571 z-score
Strand = TTAGGTTTCCTTCTCCTGTAGTGCTAG; result = 2.46 z-score
Strand = GACGATTTCAGGTATCGAGACGTGCTA; result = 0.459 z-score
Strand = GACGATATCACACTGGAGACGTGCTAG; result = -0.0298 z-score

Sample 3
Target: RNA binding protein fox-1 homolog 2, RRM domain, GST-SBP tag (RBFOX2, Homo sapiens, UniProt O43251-10, residues 100-194)
Method: RNA Bind-n-Seq
Form: RNA
Sample: in vitro
Concentration: 365 nM
Notes: natural RNA segment, single round, ends assumed
Reference: no-protein control
Direction: higher = stronger binding
Measurement: RBNS enrichment (R)
Constant ends, left off below: GGGAGUUCUACAGUCCGACGAUC … UGGAAUUCUCGGGUGCCAA
Construct (chain): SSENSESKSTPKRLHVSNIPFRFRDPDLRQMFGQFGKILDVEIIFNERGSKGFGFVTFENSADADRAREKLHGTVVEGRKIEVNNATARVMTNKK
Strand = GGGCAGGGGAACCCCAAAGUAAGGUGCCAUGGUGUUUGGCACUCAAGAUUUAGCUCACCCUUGAACUGUCCAAGUGCCCGCAGUCCCUAGACUCAUCCCCGUGGGCUAGG; result = 0.956
Strand = CCCAUCUUUCCCUGCAAGGCCACACCGUGCAUUUACAGCAGUGUGGCAAGGUGUAGGAGGGACCUUGAACCUGGCUGGCCAGGGCAGCAGCAGGAGUAGGUAGAGCUGUU; result = 0.815
Strand = GAGCGAGCGCCCUUUAGCGGCCUGCCACCACAGCACGCGGCCUCCUGAUCCGGAAGCACGCAGCAUGUUCCCUGCUGAGCGGAGGCAGCCCACCUGUCCUGCCUCCCAGG; result = 13.9
Strand = CUUACAAUGUCAGUAUUUGGGAUGUCGCUGCAUUUUUUUUUUCAAUUUAUUUGGAGUCUCCCUUUAUUCCUGCCCCCGCCCCCAGAUAUAUGAAAAUAUGCAAUACCUGC; result = 0.669
Strand = UUGACACACACAUUCACAUAUAAAUUGUUAAAAACUGAAGGCAGAAUGGAACUAAUAUAUGUAACAGAGAAAAACAAUAAAUUUUAUGAACUUGUUUUAUAUUUGCAUAU; result = 0.547
Strand = AUUUAGUUUCCAGGCCAACCAUCCAGAUAGAGAUUCCCUCUUUCCUUUGAGCAGUGCUCUCAAGAGCUCCGUGCCUGUCCACAAUGACCUAGAGUGCAUCCUGCUCAUUG; result = 0.361
Strand = UCCUAGGGGCCUCUGUACCUGCCCUGCUGGAAGCCCUGACUUCCCCGGGGCCCCAGGCUGUGUUAGGGUUCUCUGGGCCUCUUCUUUGUACCAGCAGCCCUGCAUACAGG; result = 0.297
Strand = AAUAAGUGGAAAAUACGGGAUGUACCCCUGGGGGAAAAGCCUGGGUUGGGUUUAGAAAGAUCUCAGGAAAAUGAGUUUCUCUUCCCUCAGGGUGGCUGUGAUACAGGUUC; result = 0.676
Strand = GAGUGCCUUUUGAACGCUGGUCCCGCGGGACUUGGUUUUCUCAAGCUCUGUCUGUCCAAAGACGCUCCGGUCGAGGUCCCGCCUGCCCUGGGUGGAUACUUGAACCCCAG; result = 0.236
Strand = CCGGGUUCCCCUCUGGAGCCACGGGGAACAGGGUAGGAAAAGGAGAAGAAGCACCGUGCGCAUACAGCCCACCGCAGAAGCAGCAGGUGCAGGGUGCGCGAAUGCGCAAG; result = 0.865
Strand = ACUCCCUACCCCUCUCCUCCCUAAUUCUGUCUUCCUUCUCUCCACUCUUUUAAGAUUCAGAGGGUACAGAACAACCUCUAUUAUUUCAGAGUACCCUUGAGAAUUGAAAU; result = 1.6
Strand = GUGUCGCCCUUCAGGAACUCAGAACCCGGGUGUCAGCUCUUAACAUCUCUAAGCCUUUUAAUAAAACUGUACUGAAGUUUUUAUCAGCUAAGAGUCAGUUCUUCAAUUCU; result = 0.343

Sample 4
Target: Fragile X messenger ribonucleoprotein 1, C-terminal low-complexity region (Fmr1, Mus musculus, UniProt P35922)
Method: RNA Bind-n-Seq
Form: RNA
Sample: in vitro
Concentration: 200 nM
Notes: whole 134-nt RNA, ends assumed
Added: 150 mM KCl
Reference: input library
Direction: higher = stronger binding
Measurement: log2 enrichment
Constant ends, left off below: GGGAGUUCUACAGUCCGACGAUC … UGGAAUUCUCGGGUGUCAAGG
Strand = GUCCUGUGCUACACAUCGUAUGUACCGAAUCGGAAAAAGGGGAAAAAGGGAAAAAGGGGAAAGUAUUAUGUUACGCCGUUCGGAUCUGCA; result = 0.0599
Strand = AAGUCCUGUGCUACACAUCGUAUGUACCGAAUCGGGGCCCCGGGCCCCGGGCCCCGGAAAGUAUUAUGUUACGCCGUUCGGAUCUGCACU; result = -0.704
Strand = CUCAAGUCCUGUGCUACACAUCGUAUGUACCGAAUCGGGGAAGGAAGGGAAGGAAAGUAUUAUGUUACGCCGUUCGGAUCUGCACUUCCA; result = 0.0228
Strand = CCUCAAGUCCUGUGCUACACAUCGUAUGUACCGAAUCGGGGCGGCGGGCGGGGAAAGUAUUAUGUUACGCCGUUCGGAUCUGCACUUCCA; result = 0.891
Strand = CAAGUCCUGUGCUACACAUCGUAUGUACCGAAUCGGCCCCGGGCCCCGGCCCCGGAAAGUAUUAUGUUACGCCGUUCGGAUCUGCACUUC; result = -0.248
Strand = ACCAUGCAGGUGGGCAUCUUUGGGAAGUGUGGCAAGGGGGGGAUAGGGAGGGGGGUAACACUUUGGGAACAGGUGGUCCCAGGUCGUUUC; result = 0.974
Strand = UCCUCAAGUCCUGUGCUACACAUCGUAUGUACCGAAUCGGAGGGGAGGAGGGAAAGUAUUAUGUUACGCCGUUCGGAUCUGCACUUCCAG; result = 0.301
Strand = UUCAGGAUGAAGAUGCAUCAGGGGGCGAUCAAGAUCAGGAAGAAAGAAGAUGGAACAAAAGGACUCAGCAGAUGCUUCAUGGUCUUCAGG; result = -1.25
Strand = CUCAAGUCCUGUGCUACACAUCGUAUGUACCGAAUCGGUUGGGGUUGGGUUGGGAAAGUAUUAUGUUACGCCGUUCGGAUCUGCACUUCC; result = 1.19
Strand = CAAGUCCUGUGCUACACAUCGUAUGUACCGAAUCGGGAGGGUUUUUUUGGGAGGGAAAGUAUUAUGUUACGCCGUUCGGAUCUGCACUUC; result = 0.797
Strand = UCCUGUGCUACACAUCGUAUGUACCGAAUCGGGGAAAAAGGGGAAAGGGGAAAAAGGGGAAAGUAUUAUGUUACGCCGUUCGGAUCUGCA; result = 0.363
Strand = CACAGACAACACGCACCCACACAGACACAGAGGGAAGGGGUUGGGAUGGGGACAGGGUGCACAGCAGGGCGGGGUAGGACCCCAGCCCCC; result = 1.32
Strand = UCCUGUGCUACACAUCGUAUGUACCGAAUCGGGUUUGGGUUUUUUUGGGAAAAAAAGGGAAAGUAUUAUGUUACGCCGUUCGGAUCUGCA; result = 0.029
Strand = UCCUCAAGUCCUGUGCUACACAUCGUAUGUACCGAAUCGGUGGUGGGGUGGGAAAGUAUUAUGUUACGCCGUUCGGAUCUGCACUUCCAG; result = 0.438

A few entries again (sample 3):
Strand = CUUACAAUGUCAGUAUUUGGGAUGUCGCUGCAUUUUUUUUUUCAAUUUAUUUGGAGUCUCCCUUUAUUCCUGCCCCCGCCCCCAGAUAUAUGAAAAUAUGCAAUACCUGC; result = 0.669
Strand = UUGACACACACAUUCACAUAUAAAUUGUUAAAAACUGAAGGCAGAAUGGAACUAAUAUAUGUAACAGAGAAAAACAAUAAAUUUUAUGAACUUGUUUUAUAUUUGCAUAU; result = 0.547
Strand = AUUUAGUUUCCAGGCCAACCAUCCAGAUAGAGAUUCCCUCUUUCCUUUGAGCAGUGCUCUCAAGAGCUCCGUGCCUGUCCACAAUGACCUAGAGUGCAUCCUGCUCAUUG; result = 0.361
Strand = UCCUAGGGGCCUCUGUACCUGCCCUGCUGGAAGCCCUGACUUCCCCGGGGCCCCAGGCUGUGUUAGGGUUCUCUGGGCCUCUUCUUUGUACCAGCAGCCCUGCAUACAGG; result = 0.297
Strand = AAUAAGUGGAAAAUACGGGAUGUACCCCUGGGGGAAAAGCCUGGGUUGGGUUUAGAAAGAUCUCAGGAAAAUGAGUUUCUCUUCCCUCAGGGUGGCUGUGAUACAGGUUC; result = 0.676
Strand = GAGUGCCUUUUGAACGCUGGUCCCGCGGGACUUGGUUUUCUCAAGCUCUGUCUGUCCAAAGACGCUCCGGUCGAGGUCCCGCCUGCCCUGGGUGGAUACUUGAACCCCAG; result = 0.236
Strand = CCGGGUUCCCCUCUGGAGCCACGGGGAACAGGGUAGGAAAAGGAGAAGAAGCACCGUGCGCAUACAGCCCACCGCAGAAGCAGCAGGUGCAGGGUGCGCGAAUGCGCAAG; result = 0.865
Strand = ACUCCCUACCCCUCUCCUCCCUAAUUCUGUCUUCCUUCUCUCCACUCUUUUAAGAUUCAGAGGGUACAGAACAACCUCUAUUAUUUCAGAGUACCCUUGAGAAUUGAAAU; result = 1.6
Strand = GUGUCGCCCUUCAGGAACUCAGAACCCGGGUGUCAGCUCUUAACAUCUCUAAGCCUUUUAAUAAAACUGUACUGAAGUUUUUAUCAGCUAAGAGUCAGUUCUUCAAUUCU; result = 0.343
